Assay results pooled from the literature.
Parts stem from different laboratories: compare values within a part only. Several values in a cell are separate wells, animals, samples, runs or records.
Sequence of UniProt P62344 (whole entry, looked up): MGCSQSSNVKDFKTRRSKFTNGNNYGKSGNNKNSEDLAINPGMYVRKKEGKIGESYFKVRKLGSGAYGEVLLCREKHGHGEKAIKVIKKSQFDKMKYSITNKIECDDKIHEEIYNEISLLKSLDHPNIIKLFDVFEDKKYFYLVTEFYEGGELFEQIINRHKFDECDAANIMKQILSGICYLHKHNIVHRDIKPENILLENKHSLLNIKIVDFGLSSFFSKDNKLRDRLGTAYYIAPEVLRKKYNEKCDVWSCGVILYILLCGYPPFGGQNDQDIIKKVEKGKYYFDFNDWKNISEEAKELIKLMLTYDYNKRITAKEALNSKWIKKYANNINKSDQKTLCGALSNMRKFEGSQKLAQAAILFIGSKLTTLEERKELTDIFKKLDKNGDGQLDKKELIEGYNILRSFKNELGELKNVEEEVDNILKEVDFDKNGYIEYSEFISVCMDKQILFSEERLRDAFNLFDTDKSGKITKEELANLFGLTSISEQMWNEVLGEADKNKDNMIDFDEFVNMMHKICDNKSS
Sequence of UniProt Q9BXA7 (whole entry, looked up): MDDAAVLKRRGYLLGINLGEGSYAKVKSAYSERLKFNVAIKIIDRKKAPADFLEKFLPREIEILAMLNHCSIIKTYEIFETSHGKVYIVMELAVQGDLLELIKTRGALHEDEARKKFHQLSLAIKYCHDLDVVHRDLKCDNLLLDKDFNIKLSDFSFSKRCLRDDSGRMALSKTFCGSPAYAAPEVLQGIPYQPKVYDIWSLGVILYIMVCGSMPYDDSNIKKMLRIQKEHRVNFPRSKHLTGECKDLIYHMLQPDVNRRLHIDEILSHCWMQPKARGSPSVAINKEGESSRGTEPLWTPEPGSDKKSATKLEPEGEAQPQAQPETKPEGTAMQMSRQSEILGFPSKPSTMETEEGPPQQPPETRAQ
Sequence of UniProt Q05397 (whole entry, looked up): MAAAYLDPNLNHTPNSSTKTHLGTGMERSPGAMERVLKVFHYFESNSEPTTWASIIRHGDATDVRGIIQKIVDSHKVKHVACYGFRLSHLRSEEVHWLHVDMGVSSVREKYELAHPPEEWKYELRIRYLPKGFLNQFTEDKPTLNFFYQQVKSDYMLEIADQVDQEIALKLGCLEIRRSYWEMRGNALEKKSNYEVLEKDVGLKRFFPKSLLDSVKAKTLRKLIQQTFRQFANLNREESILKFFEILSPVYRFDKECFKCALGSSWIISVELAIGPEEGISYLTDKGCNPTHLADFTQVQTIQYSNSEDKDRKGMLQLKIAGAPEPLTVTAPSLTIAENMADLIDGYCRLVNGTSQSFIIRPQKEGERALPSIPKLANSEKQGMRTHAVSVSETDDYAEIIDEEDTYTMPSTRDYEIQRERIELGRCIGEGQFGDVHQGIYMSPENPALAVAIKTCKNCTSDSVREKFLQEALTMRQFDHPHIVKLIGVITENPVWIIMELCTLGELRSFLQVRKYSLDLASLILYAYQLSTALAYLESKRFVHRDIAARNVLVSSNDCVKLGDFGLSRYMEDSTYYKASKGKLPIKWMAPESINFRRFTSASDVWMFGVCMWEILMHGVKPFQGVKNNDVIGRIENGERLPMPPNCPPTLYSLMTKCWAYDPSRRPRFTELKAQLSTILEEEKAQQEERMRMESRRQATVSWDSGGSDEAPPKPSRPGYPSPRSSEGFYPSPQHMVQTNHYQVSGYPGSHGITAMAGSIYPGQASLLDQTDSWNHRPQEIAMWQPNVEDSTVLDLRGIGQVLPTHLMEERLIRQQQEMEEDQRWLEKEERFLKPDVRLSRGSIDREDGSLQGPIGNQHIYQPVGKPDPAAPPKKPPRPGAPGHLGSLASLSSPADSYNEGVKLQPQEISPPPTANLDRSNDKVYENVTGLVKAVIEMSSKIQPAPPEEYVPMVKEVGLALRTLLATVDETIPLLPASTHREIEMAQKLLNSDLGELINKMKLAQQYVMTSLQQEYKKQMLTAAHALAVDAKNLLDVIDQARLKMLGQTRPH
Sequence of UniProt O15111 (whole entry, looked up): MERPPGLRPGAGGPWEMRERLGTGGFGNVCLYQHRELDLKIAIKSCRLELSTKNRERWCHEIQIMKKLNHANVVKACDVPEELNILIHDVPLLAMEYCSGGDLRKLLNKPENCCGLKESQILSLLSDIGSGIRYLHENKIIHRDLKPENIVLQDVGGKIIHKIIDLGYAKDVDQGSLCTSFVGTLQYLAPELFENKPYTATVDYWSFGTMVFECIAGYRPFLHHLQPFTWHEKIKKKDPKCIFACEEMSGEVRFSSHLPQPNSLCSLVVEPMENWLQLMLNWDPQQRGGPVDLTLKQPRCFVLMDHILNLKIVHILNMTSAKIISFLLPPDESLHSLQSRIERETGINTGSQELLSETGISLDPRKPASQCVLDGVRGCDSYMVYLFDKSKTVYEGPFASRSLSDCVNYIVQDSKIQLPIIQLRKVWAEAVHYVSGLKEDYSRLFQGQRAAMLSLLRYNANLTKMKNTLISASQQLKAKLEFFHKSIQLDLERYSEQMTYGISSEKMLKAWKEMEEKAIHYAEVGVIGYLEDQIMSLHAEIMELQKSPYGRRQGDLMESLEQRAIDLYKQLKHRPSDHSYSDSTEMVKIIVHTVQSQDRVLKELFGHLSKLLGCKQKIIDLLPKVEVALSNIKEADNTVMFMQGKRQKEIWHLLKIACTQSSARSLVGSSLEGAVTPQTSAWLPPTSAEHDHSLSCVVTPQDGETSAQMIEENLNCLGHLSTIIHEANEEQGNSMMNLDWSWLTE
Sequence of UniProt Q13882 (whole entry, looked up): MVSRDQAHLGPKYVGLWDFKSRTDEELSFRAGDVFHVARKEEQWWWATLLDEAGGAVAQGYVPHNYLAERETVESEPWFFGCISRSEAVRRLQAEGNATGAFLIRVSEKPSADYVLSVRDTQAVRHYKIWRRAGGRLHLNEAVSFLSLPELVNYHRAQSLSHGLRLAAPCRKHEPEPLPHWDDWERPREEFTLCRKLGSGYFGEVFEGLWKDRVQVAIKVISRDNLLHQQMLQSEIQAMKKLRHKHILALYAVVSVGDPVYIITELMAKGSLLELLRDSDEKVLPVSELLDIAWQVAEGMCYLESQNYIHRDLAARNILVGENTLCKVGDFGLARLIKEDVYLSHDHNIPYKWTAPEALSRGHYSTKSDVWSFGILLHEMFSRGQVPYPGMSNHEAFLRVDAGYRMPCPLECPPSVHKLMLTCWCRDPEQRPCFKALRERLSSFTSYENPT
Sequence of UniProt Q5BJF2 (whole entry, looked up): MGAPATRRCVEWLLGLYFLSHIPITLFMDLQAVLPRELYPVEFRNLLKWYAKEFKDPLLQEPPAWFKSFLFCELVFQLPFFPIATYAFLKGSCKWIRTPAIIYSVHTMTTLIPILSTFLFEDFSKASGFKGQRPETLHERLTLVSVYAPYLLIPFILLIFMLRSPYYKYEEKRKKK

Block 1
SMILES: CCn1cnc2c(Nc3cccc(Cl)c3)nc(N[C@H]3CCCC[C@H]3N)nc21
Effect on: enzyme activity
Mode: inhibitor
Tested at: 0.5 µM
Reference: control
For PTK2 (Homo sapiens, UniProt Q05397): remaining activity read 83.1%.
For SYK (Homo sapiens, UniProt P43405): remaining activity read 98.4%.
It gave 91.7% for remaining activity (CHUK (Homo sapiens, UniProt O15111)).
It gave 82.1% for remaining activity (PTK6 (Homo sapiens, UniProt Q13882)).
For TSSK1B (Homo sapiens, UniProt Q9BXA7): remaining activity read 87.4%.

Block 2
SMILES: CNC(=O)c1ccc(-c2cnn3ccc(C(=O)N(C)c4ccc(Cl)c(C(=O)OC)c4)cc23)cc1
Organism: Cryptosporidium parvum
Technique: time-kill
Strain: nanoluciferase-expressing
Reference: DMSO
27 nM, 24 h — luminescence: 32.2% and 30.1%.
The luminescence was 86.4% and 75.2% (9 nM, 8 h).
27 nM, 4 h — luminescence: 122% and 97.5%.
For 81 nM, 48 h: luminescence read 11.8% and 10.3%.

Single results of other studies
Cc1cc(NC(=O)c2cccc(S(F)(F)(F)(F)F)c2)cc(-n2ccn3nc(-c4cccnc4)cc23)c1 has a viability of 98.2% and 98.8% (normal organoid sample D; CellTiter-Glo; human; 1 µM, 4 days; reference: DMSO).
With CCOc1ccc(Nc2c3c(nc4ccccc24)CCC3)cc1 the cytotoxicity was -8% and -6% (RAW264.7; resazurin; 0.32 µM).
For Cc1c(N2CCNCC2)nc2ccc(Br)cc2c1C(=O)NC[C@H](CCC(=O)O)c1ccccc1Cl, the inhibition was 60% (TMEM97 (Homo sapiens, UniProt Q5BJF2); ligand displacement; 10 µM).
The remaining binding of CS(=O)(=O)N1CCCC(NC(=O)[C@H](CCC2CCCCC2)NC(=O)c2ccc(CNC(=O)c3cnc4ccccn34)cc2)C1 (some centres unmarked) is reported as 78% (CDPK1 (Plasmodium falciparum, UniProt P62344); cell-free assay, competition with immobilised ligand; 0.1 µM).
With CNC(=O)c1cc(C(=O)NC2CC2)cn(Cc2ccccc2)c1=O the viability was 82% (normal-adjacent epithelium patient-derived organoids sample H; CellTiter-Glo; 1 µM; reference: DMSO).
